Results gathered from unrelated publications.
Numbers after ± are the reported error.
Cell line: HepG2

Oc1ccc2c(c1)OCc1c-2oc2cc3c(cc12)OCO3  IC50 (cell growth or viability, MTT; 72 h): 13.4 µM
Cc1cc(/C=C/C#N)cc(C)c1Oc1cc(Nc2ccc(C#N)cn2)nc2cnccc12  IC50 (48 h): 9.6 ± 6.5 µM
COc1cc(-c2ccc(C(=O)N/N=C/c3ccc(N(C)C)cc3)c(C)n2)cc(OC)c1OC  IC50 (cell growth or viability, MTT): 40.1 µM
COc1cccc2c1C(=O)c1c(O)c3c(c(O)c1C2=O)CC(O)(C(=O)CO)CC3OC1CC(NC(=O)C[C@H](N)C(=O)O)C(O)C(C)O1 (stereo partly drawn)  IC50 (cell growth or viability, MTT; 48 h): < 10 µg/mL
COCCOCCSc1nc(N)c2c(F)c(C#N)c(F)c(F)c2n1  IC50 (cell growth or viability, MTT; 96 h): 14.9 µM
[NH2][Pt]1([NH2])([Cl])([O]C(=O)C(Cl)Cl)[O]C(=O)C2(CC(=O)C2)C(=O)[O]1  IC50 (cell growth or viability, MTT): 10.4 µM
Cc1c(C(=O)NNC(=O)Nc2ccc(Cl)cc2)nnn1Cc1nc2ccccc2[nH]1  IC50 (cell growth or viability, MTT; 48 h): 53.6 µM
C/C(=N\NC(=S)N(C)C)c1ccc(S(=O)(=O)N2CCC(C)CC2)cc1  IC50 (cell growth or viability, MTT): 10.1 µM
CC(C)=CCc1c(O)cc2c(c1O)C(=O)OC2  IC50 (cell growth or viability, CCK-8; 24 h): > 50 µM
Oc1ccc2c(c1)[O][Pt-2]1([Cl])[N+](=C2)CC[NH+]1c1ccccc1 (stereo not drawn)  IC50 (cell viability, MTT; 48 h): 77.2 ± 6.43 µM
CC[C@@]1(C)CC[C@H]2[C@@](C)(CC[C@@]3(C)[C@@H]4CC(C)(C)CC[C@]4(C)CC[C@]23C)[C@@H]1CCC(=O)O  IC50 (cell growth or viability, SRB): 19.6 µM
Cc1ccc2nc(Cl)c(-c3nc4cc(Br)ccc4[nH]3)cc2c1  IC50 (cell growth or viability, MTT; 48 h): > 100 µM
CCn1cc(/C=C/c2ccc3ccccc3[n+]2CC)c2ccccc21  IC50 (cell growth or viability, MTT; 24 h): 9.5 µM
COc1ccc(-c2c(C#N)c(N)n(-c3nnc(NC(=O)c4ccccc4)s3)c(=O)c2C#N)cc1  IC50 (cell growth or viability, MTT; 48 h): 54.6 µM
COc1ccc(CN2C(=O)C(=O)c3cc(NC(C)=O)ccc32)cc1  IC50 (cell growth or viability, MTT; 48 h): 0.42 µM
COc1cc2nc(N3CCCN(C)CC3)nc(SC3CCN(Cc4ccccc4)CC3)c2cc1OC  IC50 (cell growth or viability): 10.2 µM
Cc1cc(C=O)cc(C)c1Oc1cc(Nc2ccc(C#N)cc2)nc2cnccc12  IC50 (48 h): > 127 µM
Cc1ccc(/C=N/NC(=O)c2cc3cc(Nc4nccc(-c5cccnc5)n4)ccc3[nH]2)cc1  IC50 (cell growth or viability, MTT; 48 h): 8.25 µM
CC(C)=CCc1c(O)cc(CO)cc1O  IC50 (cell growth or viability, CCK-8; 24 h): > 50 µM
COc1cc(OC)c(C(C)=O)c(OC)c1  IC50 (cell growth or viability, MTT; 48 h): 40.9 µM
N#Cc1c(F)c(F)c2nc(SCc3ccccc3)nc(N)c2c1F  IC50 (cell growth or viability, MTT; 96 h): 12.2 µM
CC(=O)[O-].O.O.O.O.[Ni+2].[O-]c1ccc(Br)cc1C=NCCN1CCOCC1  IC50 (cell viability, MTT; 72 h): 24.3 µg/mL
C=C(C)[C@@H]1CC[C@]2(C(=O)OCO/N=[N+](\[O-])N3CCCC3)CC[C@]3(C)[C@H](CC[C@@H]4[C@@]5(C)CC[C@H](OC(C)=O)C(C)(C)[C@@H]5CC[C@]43C)[C@@H]12  IC50 (cell growth or viability, MTT; 72 h): 4.32 µM
COc1cc2c(=O)c(-c3ccc4c(c3)OCO4)coc2c2c1OC(C)(C)C=C2  IC50 (cell growth or viability, MTT; 72 h): 17.9 µM
CC(C)(C)c1cc2c(O)c(c1)Cc1cc(C(C)(C)C)cc(c1OCC(=O)Nc1cncc3ccccc13)Cc1cc(C(C)(C)C)cc(c1O)Cc1cc(C(C)(C)C)cc(c1OCC(=O)Nc1cncc3ccccc13)COC2  IC50 (cell growth or viability, MTT; 72 h): 2.3 µM
CCC1=C(CC)C2=[N+]3C1=Cc1c(CC)c(CC)c4[n]1[Ir-3]31([c]3n(C(C)C)cc[n+]3C(C)C)([c]3n(C(C)C)cc[n+]3C(C)C)[n]3c(c(CC)c(CC)c3=CC3=[N+]1C(=C4)C(CC)=C3CC)=C2.F[P-](F)(F)(F)(F)F  IC50 (cell growth or viability, MTT; 72 h): 2.4 µM
[Cl][Cu][Cl].c1ccc(-c2nnc(-c3ccc4c(c3)OCO4)[nH]2)nc1  IC50 (cell growth or viability, MTT; 24 h): 4.23 µM
N#Cc1cccc(-c2ccc(=O)n(Cc3cccc(-c4ncc(OCC5CCN(CCCCCCC(=O)Nc6cccc7c6C(=O)N(C6CCC(=O)NC6=O)C7=O)CC5)cn4)c3)n2)c1 (stereo not drawn)  IC50 (cell growth or viability, CCK-8; 72 h): 4.14 µM
COCCOCCSc1nc(N)c2c(F)c(C#N)c(F)c(Cl)c2n1  IC50 (cell growth or viability, MTT; 96 h): 14.9 µM
C[C@]12CC[C@@H]3c4ccc(O)cc4CC[C@H]3[C@@H]1CC[C@@]2(O)c1cn(CC(=O)c2ccc(Br)cc2)nn1  IC50 (cell growth or viability, resazurin; 72 h): 20.4 µM
CC(C)Cn1cc(-c2ccnc(Nc3ccc(OCCCCCCC(=O)NO)cc3)n2)nn1  IC50 (cell growth or viability, SRB; 72 h): 5.63 µM
COc1ccc2nc(Cl)c(-c3nc4cc(Cl)c(Cl)cc4[nH]3)cc2c1  IC50 (cell growth or viability, MTT; 48 h): 16.7 µM
C=CC(OC(C)=O)c1cc(OC)cc(OC)c1 (stereo not drawn)  IC50 (MTT; 24 h): > 50 µM
O=c1cc(-c2ccc(O)c(O)c2)oc2cc(O[C@@H]3O[C@H](CO)[C@@H](O)[C@H](O)[C@H]3O)cc(O)c12  IC50 (reactive oxygen species, fluorescence): 174 µg/mL
COc1cc2ncnc(Nc3ccc(F)c(Cl)c3)c2cc1NC(=O)N/N=C/c1ccc[nH]1  IC50 (cell growth or viability, MTT; 72 h): 9.18 µM
[Cl][Pd-2]([Cl])([N+](=Cc1ccc[nH]1)Cc1ccco1)[N+](=Cc1ccc[nH]1)Cc1ccco1  IC50 (cell growth or viability, MTT; 24 h): > 100 µg/mL
CCOC(=O)C/C(C)=N/NC(=O)c1nc2ccccc2n(C)c1=O  IC50 (cell growth or viability, MTT; 48 h): 13.8 µM
CCNC(=S)N/N=C(\C)c1c(O)c2ccccc2oc1=O  IC50 (cell growth or viability, MTT; 48 h): 46.4 µM
CSc1nc(N)c2c(F)c(C#N)c(F)c(Cl)c2n1  IC50 (cell growth or viability, MTT; 96 h): 23.9 µM
Clc1nc2cc3c(cc2cc1-c1nc2ccccc2[nH]1)OCO3  IC50 (cell growth or viability, MTT; 48 h): > 100 µM
CC(=O)OC[C@]1(C)CCC[C@]2(COC(C)=O)[C@@H]1CC[C@@]13C[C@@H](C[C@H](O)[C@H]12)[C@@H](C)C3=O  IC50 (cell growth or viability, MTT): > 20 µM
COC(=O)CNC(=O)COc1ccc2c(C)cc(=O)oc2c1  IC50 (cell growth or viability, MTT): 101 µM
C/C(=N\NC(=S)SCc1ccccc1)c1ccc(S(=O)(=O)N2CCC(C)CC2)cc1  IC50 (cell growth or viability, MTT): 91.3 µM
CCOc1cccc(/C=N/Cc2ccccn2)c1O  IC50 (cell growth or viability, MTT; 48 h): 66.7 µM
C=C1C(=O)C23CCC4C(C)(C)CCCC4(C)C2C(O)CC1C3 (single isomer, unassigned)  IC50 (cell growth or viability, MTT): 4.2 µM
C[C@@H]1O[C@@H](O[C@H]2[C@H](O[C@H]3CC[C@@]4(C)[C@@H](CC[C@]5(C)[C@@H]4CC=C4[C@@H]6CC(C)(C)CC[C@]6(C(=O)O)CC[C@]45C)[C@]3(C)CO)OC[C@H](O[C@@H]3O[C@H](CO)[C@@H](O)[C@H](O)[C@H]3O)[C@@H]2O)[C@H](O)[C@H](O)[C@H]1O  IC50 (NF-κB activity, inhibitor, luciferase; TNF-stimulated): 8.3 µM
NC(=O)c1ccc(-c2ccccc2F)c2c3c([nH]c12)CCCC3  IC50 (cell growth or viability): > 10 µM
COc1cccc2cc(C(=O)NNC(N)=S)c(=O)oc12  IC50 (cell growth or viability, SRB; 72 h): 10.8 µM
N#Cc1cccc(-c2ccc(=O)n(Cc3cccc(-c4ncc(OCC5CCN(CCCCC(=O)Nc6ccc7c(c6)C(=O)N(C6CCC(=O)NC6=O)C7=O)CC5)cn4)c3)n2)c1 (stereo not drawn)  IC50 (cell growth or viability, CCK-8; 72 h): 2.47 µM
c1ccc2c(NCCNc3ncnc4cc(OCC5CCN(CCNc6ccnc7ccccc67)CC5)ccc34)cccc2c1  IC50 (cell growth or viability, ATP luminescence; 72 h): 2.5 µM
COC(=O)CNc1cc(CS(=O)(=O)c2ccc3ccccc3c2)ccc1OC  IC50 (cell growth or viability, MTS; 48 h): 0.535 µM
Clc1ccc2[nH]c(-c3cc4cc5c(cc4nc3Cl)OCO5)nc2c1  IC50 (cell growth or viability, MTT; 48 h): > 100 µM
O=C(CCCCCCOc1ccc(Nc2ncc(F)c(-c3cn(C4CCCCC4)nn3)n2)cc1)NO  IC50 (cell growth or viability, SRB; 72 h): > 10 µM
COc1cc(/C=C/C(=O)/C=C/c2cn(-c3ccccc3)nc2C(=O)O)cc(OC)c1O  IC50 (cell growth; 72 h): > 25 µM
Cc1nn(CCO)c2ncc(C(=O)c3cc(Cl)ccc3O)cc12  IC50 (cell growth or viability, MTT): > 50 µM
O=[N+]([O-])c1ccc(C(c2c(-c3ccccc3)[nH]c3ccccc23)c2c(-c3ccccc3)[nH]c3ccccc23)cc1  IC50 (cell growth or viability, MTT; 24 h): 9.73 µM
CC(=O)OC[C@H]1O[C@@H](n2nc(-c3cc4ccccc4[nH]3)n(-c3ccc(Cl)cc3)c2=S)[C@H](OC(C)=O)[C@@H](OC(C)=O)[C@@H]1OC(C)=O  IC50 (cell growth or viability, MTT): 46.4 µM
N#Cc1cccc(-c2ccc(=O)n(Cc3cccc(-c4ncc(OCC5CCN(CCCCCCCC(=O)Nc6cccc7c6C(=O)N(C6CCC(=O)NC6=O)C7=O)CC5)cn4)c3)n2)c1 (stereo not drawn)  IC50 (cell growth or viability, CCK-8; 72 h): 20.1 µM
Clc1nc2ccccc2cc1-c1nc2cc(Br)ccc2[nH]1  IC50 (cell growth or viability, MTT; 48 h): 28.2 µM
O=C(Nc1ccccc1)c1ccccc1-n1c(=O)[nH]c2ccc(F)cc2c1=O  IC50 (cell growth or viability, MTT; 24 h): 10.1 µM

Excerpt of the above:
COc1cc2nc(N3CCCN(C)CC3)nc(SC3CCN(Cc4ccccc4)CC3)c2cc1OC  IC50 (cell growth or viability): 10.2 µM
Cc1cc(C=O)cc(C)c1Oc1cc(Nc2ccc(C#N)cc2)nc2cnccc12  IC50 (48 h): > 127 µM
Cc1ccc(/C=N/NC(=O)c2cc3cc(Nc4nccc(-c5cccnc5)n4)ccc3[nH]2)cc1  IC50 (cell growth or viability, MTT; 48 h): 8.25 µM
CC(C)=CCc1c(O)cc(CO)cc1O  IC50 (cell growth or viability, CCK-8; 24 h): > 50 µM
COc1cc(OC)c(C(C)=O)c(OC)c1  IC50 (cell growth or viability, MTT; 48 h): 40.9 µM
N#Cc1c(F)c(F)c2nc(SCc3ccccc3)nc(N)c2c1F  IC50 (cell growth or viability, MTT; 96 h): 12.2 µM
CC(=O)[O-].O.O.O.O.[Ni+2].[O-]c1ccc(Br)cc1C=NCCN1CCOCC1  IC50 (cell viability, MTT; 72 h): 24.3 µg/mL
C=C(C)[C@@H]1CC[C@]2(C(=O)OCO/N=[N+](\[O-])N3CCCC3)CC[C@]3(C)[C@H](CC[C@@H]4[C@@]5(C)CC[C@H](OC(C)=O)C(C)(C)[C@@H]5CC[C@]43C)[C@@H]12  IC50 (cell growth or viability, MTT; 72 h): 4.32 µM
